# Results of several laboratories.
# A part holds a random share of what one study measured.

# Block 1 — method: universal PBM; form: double-stranded DNA, one strand shown; matrix: in vitro; concentration: 600 nM; direction: higher = stronger binding
# Target: Sal-like protein 4, full length isoform A (SALL4, Homo sapiens, UniProt Q9UJQ4, residues 1-1053)
# UniProt Q9UJQ4, sequence (whole entry, looked up): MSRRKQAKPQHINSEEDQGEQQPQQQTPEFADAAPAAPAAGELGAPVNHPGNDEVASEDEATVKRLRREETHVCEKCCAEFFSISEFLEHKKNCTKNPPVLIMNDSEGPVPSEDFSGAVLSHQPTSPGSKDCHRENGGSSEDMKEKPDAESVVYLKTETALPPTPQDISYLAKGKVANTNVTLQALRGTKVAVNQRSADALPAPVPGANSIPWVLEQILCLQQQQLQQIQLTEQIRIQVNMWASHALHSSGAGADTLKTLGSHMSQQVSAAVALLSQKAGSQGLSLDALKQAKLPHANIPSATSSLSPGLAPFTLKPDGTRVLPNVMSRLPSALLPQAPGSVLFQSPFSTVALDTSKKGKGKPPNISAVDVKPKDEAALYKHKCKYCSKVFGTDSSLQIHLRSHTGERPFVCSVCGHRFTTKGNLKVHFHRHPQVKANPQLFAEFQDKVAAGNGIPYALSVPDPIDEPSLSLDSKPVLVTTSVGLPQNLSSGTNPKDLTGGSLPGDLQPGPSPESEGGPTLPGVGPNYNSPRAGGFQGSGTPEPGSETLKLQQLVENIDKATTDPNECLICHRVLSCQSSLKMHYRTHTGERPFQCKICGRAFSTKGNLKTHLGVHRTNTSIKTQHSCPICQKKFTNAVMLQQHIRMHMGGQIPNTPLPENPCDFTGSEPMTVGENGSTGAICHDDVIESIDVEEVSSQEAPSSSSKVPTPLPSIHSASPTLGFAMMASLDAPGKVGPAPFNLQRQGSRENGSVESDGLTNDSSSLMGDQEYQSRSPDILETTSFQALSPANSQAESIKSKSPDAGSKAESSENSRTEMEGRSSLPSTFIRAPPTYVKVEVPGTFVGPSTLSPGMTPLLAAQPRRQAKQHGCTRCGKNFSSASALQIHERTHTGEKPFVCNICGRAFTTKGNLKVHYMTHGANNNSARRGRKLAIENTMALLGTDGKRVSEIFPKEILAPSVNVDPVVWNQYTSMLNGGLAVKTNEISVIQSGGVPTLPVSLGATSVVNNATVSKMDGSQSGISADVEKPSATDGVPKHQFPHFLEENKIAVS
# Notes: 8-mer, flanks averaged, mean of replicates
Oligonucleotide,E-score
ATGCGGCA,-0.157
GACAGAGC,-0.1
CATATTAC,0.376
GGGTTCAA,-0.1
GCAAAAAA,0.227
ATGCTTGA,0.0994
ATGAGCCA,0.0701
AGCTGTGA,-0.00754
ATACCAAA,0.204
AGTAGGTA,0.11
ACACCCCC,-0.236
ACCGTCTG,-0.271
CTTCGAAG,-0.0594
ATCAGACC,-0.0409
AGGTCGCC,-0.24
CATTCGCC,-0.215
AAGCGGAA,0.0743
CTCATCGC,-0.0681
TAAGGTAA,0.185
CAAAGCAG,0.00642
AATACATT,0.299
GTCCGTCA,0.0496
ATTGGCTA,-0.00043
GTGTTGCA,-0.00976
GGCACCCA,-0.224

# Block 2 — method: RNA Bind-n-Seq; form: RNA; matrix: in vitro; concentration: 200 nM; notes: whole 134-nt RNA, ends assumed; together with: 150 mM KCl; relative to: input library; direction: higher = stronger binding
# Target: Ras GTPase-activating protein-binding protein 1, full length (G3BP1, Homo sapiens, UniProt Q13283)
# UniProt Q13283, sequence (whole entry, looked up): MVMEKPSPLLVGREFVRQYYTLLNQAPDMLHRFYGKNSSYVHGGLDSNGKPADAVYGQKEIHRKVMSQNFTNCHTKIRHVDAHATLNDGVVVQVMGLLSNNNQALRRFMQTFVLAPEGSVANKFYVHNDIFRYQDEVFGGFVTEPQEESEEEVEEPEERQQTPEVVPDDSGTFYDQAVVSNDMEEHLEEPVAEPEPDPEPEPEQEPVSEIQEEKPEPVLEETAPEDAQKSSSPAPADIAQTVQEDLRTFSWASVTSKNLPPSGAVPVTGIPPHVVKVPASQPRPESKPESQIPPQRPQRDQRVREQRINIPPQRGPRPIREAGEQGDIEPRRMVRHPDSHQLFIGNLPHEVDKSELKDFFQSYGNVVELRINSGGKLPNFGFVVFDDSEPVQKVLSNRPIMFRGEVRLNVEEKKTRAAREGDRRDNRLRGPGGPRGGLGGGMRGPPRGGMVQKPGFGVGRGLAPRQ
Oligonucleotide,log2 enrichment
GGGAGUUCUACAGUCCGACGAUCACCAUGCAGGUGGGCAUCUUUGGGAAGUGGGGCAAGGGGGGGAUAGGGAGGGGGGUAACACUUUGGGAACAGGGGGUCCCAGGUCGUUUCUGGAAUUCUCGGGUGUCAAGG,0.926
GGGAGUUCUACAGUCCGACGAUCGCCAUGCAGGUGGGCAUCUUUGGGAAGUGGGGCAAGGGGGGGAUAGGGAGGGGGGUAACACUUUGGGAACAGGUGGUCCCAGGUCGUUUCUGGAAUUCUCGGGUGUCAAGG,1.32
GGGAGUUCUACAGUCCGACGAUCCUGUGCUACACAUCGUAUGUACCGAAUCGGGGUUUUUUUGGGGUUUUUUUGGGGUUUGGGGAAAGUAUUAUGUUACGCCGUUCGGAUCUGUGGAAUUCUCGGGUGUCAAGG,-0.389
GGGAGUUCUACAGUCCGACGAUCAAGUCCUGUGCUACACAUCGUAUGUACCGAAUCGGGGAAAAAGGGGUGGGGAGGGGAAAGUAUUAUGUUACGCCGUUCGGAUCUGCACUUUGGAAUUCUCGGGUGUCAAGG,0.653
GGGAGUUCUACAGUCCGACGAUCUCAAGUCCUGUGCUACACAUCGUAUGUACCGAAUCGGGCCCGGCCCGGCCCGGGGAAAGUAUUAUGUUACGCCGUUCGGAUCUGCACUUCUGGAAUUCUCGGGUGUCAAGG,-0.947
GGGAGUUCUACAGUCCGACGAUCUAACUUUAGAGGAGGAUCUGGUGGAUAUGGCAGUGGACGUGGAUUUGGGGAUGGCUAUAAUGGGUAUGGAGGAGGACCUGGAGGUGGCAAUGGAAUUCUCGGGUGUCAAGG,0.48
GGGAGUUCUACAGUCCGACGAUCCCUGUGCUACACAUCGUAUGUACCGAAUCGGGGAAAAAAGGAAAAAAGGGGAAAAAAGGGGAAAGUAUUAUGUUACGCCGUUCGGAUCUGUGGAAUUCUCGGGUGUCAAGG,-0.403
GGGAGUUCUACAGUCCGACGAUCAAGUCCUGUGCUACACAUCGUAUGUACCGAAUCGGGGAAAAGGAAAAGGGAAAAGGAAAGUAUUAUGUUACGCCGUUCGGAUCUGCACUUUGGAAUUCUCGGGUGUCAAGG,-0.844
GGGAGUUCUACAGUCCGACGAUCUUCGACGAAACAAUUCGAAAGCCCAUCAGUUUGGGUUGUGGCCAUACUGUCUGCAAGAUGUGCCUGAAUAAACUCCACCGCAAGGCUUGCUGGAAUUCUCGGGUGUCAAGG,0.143
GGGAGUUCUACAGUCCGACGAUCUCCUGUGCUACACAUCGUAUGUACCGAAUCGGGCCCCCCGGCCCCCCGGGGCCCCCCGGGAAAGUAUUAUGUUACGCCGUUCGGAUCUGCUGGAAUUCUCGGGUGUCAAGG,0.0544
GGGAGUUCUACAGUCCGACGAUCAGUCCUGUGCUACACAUCGUAUGUACCGAAUCGGGUUUUGGGUUUUGGGUUUUGGGGAAAGUAUUAUGUUACGCCGUUCGGAUCUGCACUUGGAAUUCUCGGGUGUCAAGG,0.0838
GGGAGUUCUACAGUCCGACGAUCUCCUGUGCUACACAUCGUAUGUACCGAAUCAAAUUUAAACCCCCCCAAACCCCCCCAAAAAAGUAUUAUGUUACGCCGUUCGGAUCUGCAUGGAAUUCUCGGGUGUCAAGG,0.129
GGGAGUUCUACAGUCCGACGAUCUUAGUGAAUGUAUAGAAGGAGUAAAGGUAGAGCACAAUCCUGACCUGUCAGUUACUGUCAGCACCAAAAAAUCCCACCAGACAUGGACCUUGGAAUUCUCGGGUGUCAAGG,-0.14
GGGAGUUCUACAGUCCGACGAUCUCAAGUCCUGUGCUACACAUCGUAUGUACCGAAUCGGGGUUUGGUUUGGUUUGGAAAGUAUUAUGUUACGCCGUUCGGAUCUGCACUUCCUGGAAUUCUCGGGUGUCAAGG,-0.0952

# Block 3 — method: protein-binding microarray; form: double-stranded DNA, one strand shown; matrix: in vitro; concentration: 250 nM; notes: 60-bp whole probe; together with: salmon DNA 0.4 mg/ml; relative to: random background probes; direction: higher = stronger binding; shared flanks, not repeated: GCCTAGCAC … GTCTTGATTCGCTTGACGCTGCTG
# Target: Interferon regulatory factor 7, full length, phosphomimetic (IRF7, Homo sapiens, UniProt Q92985, residues 1-503, S101K/S471D/S472D/S475D/S476D/S477D/S483D/S484D/S487D)
# Construct (chain): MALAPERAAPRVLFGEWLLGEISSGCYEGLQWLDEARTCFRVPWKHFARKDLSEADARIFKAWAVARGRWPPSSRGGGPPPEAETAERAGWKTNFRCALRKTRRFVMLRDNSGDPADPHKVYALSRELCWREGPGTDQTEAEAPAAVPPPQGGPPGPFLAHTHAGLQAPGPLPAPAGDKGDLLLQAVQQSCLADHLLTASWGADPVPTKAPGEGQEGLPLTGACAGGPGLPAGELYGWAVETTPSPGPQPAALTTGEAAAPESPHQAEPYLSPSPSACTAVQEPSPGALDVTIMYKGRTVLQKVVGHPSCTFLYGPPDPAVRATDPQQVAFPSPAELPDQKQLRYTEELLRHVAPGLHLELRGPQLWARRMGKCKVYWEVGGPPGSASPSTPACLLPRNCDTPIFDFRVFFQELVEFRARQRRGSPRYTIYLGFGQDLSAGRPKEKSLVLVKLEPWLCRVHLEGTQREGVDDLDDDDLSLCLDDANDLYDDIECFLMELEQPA
Oligonucleotide,log fluorescence [z-score]
CAGGTTCTCTTTTATTTTTTGTGCTAG,3.34
GACGAACTGGGGTACCGAGACGTGCTA,-0.628
TTAGGTCTCGGTTTCAGTTAGTGCTAG,7.15
GACGGACTGGGGACTGGGGATGTGCTA,-0.396
TCATGTTTCCTCTTTCTACTGTGCTAG,3.45
TTAGGTGTCCTTCTCCTTTAGTGCTAG,-0.123
GACGGTCTCGGTTACGGGACGTGCTAG,1.36
GACGGACTGGGACTGGGGTCGTGCTAG,-0.217
GACGGACTGGTGACTGGGGACGTGCTA,-0.686
TCACTCGTCTCTATCAAACTGTGCTAG,0.161
CACGGTATCGGGTTTCGGGACGTGCTA,3.46
GACGATATCAGCTTCGAGACGTGCTAG,-0.0558
GACGCACTGAGTCTCGAGACGTGCTAG,0.419
GACGGTTTCGGTCTAGGGACGTGCTAG,8.41
TTAGATTTCAGTCTTGATTAGTGCTAG,0.486
TTAGGTATGCTTCTCCTTTAGTGCTAG,0.385
TTAGGTTTCCTTCCCCTTTAGTGCTAG,1.76
TCAATTATTTATTGTAGCACTGTGCTA,0.0564
GGGCCCATCATTCCGACCCTGTGCTAG,0.864
TTAAGTATCGACTTTCGGTTAGTGCTA,3.31
TTAGGTTTCGACTATCGGTTCGTGCTA,5.07
GACGAATTCAGTTTCGAGACGTGCTAG,5.04
TCCTCTTTCTCTGCTACCCTCGTGCTA,1.42
TCAAAAATCTCAATGGGACTGTGCTAG,-0.535
TCAAGTATGTTCACTATTACTGTGCTA,-0.111

# Block 4 — method: RNA Bind-n-Seq; form: RNA; matrix: in vitro; concentration: 365 nM; relative to: no-protein control; direction: higher = stronger binding
# Target: RNA binding protein fox-1 homolog 2, RRM domain, GST-SBP tag (RBFOX2, Homo sapiens, UniProt O43251-10, residues 100-194)
# Notes: natural RNA segment, single round, ends assumed
# Residues (chain): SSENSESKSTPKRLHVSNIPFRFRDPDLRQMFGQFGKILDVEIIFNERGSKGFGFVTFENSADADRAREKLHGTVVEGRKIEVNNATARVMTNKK
Oligonucleotide,RBNS enrichment (R)
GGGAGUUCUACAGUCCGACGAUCAUGAUGUUACCAGAAACAGGCAUUCAGGAACUCUACUGUCUAGAUACUACAUUCAGCUUACCAUAAAUAUUUGUCCUUGAAGGGUUUGAUUUAAUAUUUUCACAGACUAGUGGAAUUCUCGGGUGCCAA,0.679
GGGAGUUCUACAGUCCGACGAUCAUCUGUGCAGGGUCGUGGGAGCCACACUGAGAGACUUGUGUGGGCCAGACAAGCUUCAUUCUGAUGCGCUAGUCCCUUGGUUUAAUUUGUGCCUUAUGCUUUCAUUGGACUGGAAUUCUCGGGUGCCAA,0.375
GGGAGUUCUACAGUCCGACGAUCCAGCUGCGCCCCCCUCCCAUCCUUUCCUAUGAGAAGCCACUGCUUUGGGGGCGCCGGCUAGAAAAAGUAGGGUGCGGUGGCCAGGAGGGCCCCUGCCGCGCGGGGGGCUGUGGAAUUCUCGGGUGCCAA,0.365
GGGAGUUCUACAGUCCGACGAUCGAGCAGACAGCAAGAAUGAAAAGCAGAAAAUACAAUAGAGGAAAUGAAGAAAAGUAGGCCUGCUGGAGCUAGAUGAUGAUGUGAUGGAAAUAGAAGUAACCUUUUAGAGAUGGAAUUCUCGGGUGCCAA,4.42
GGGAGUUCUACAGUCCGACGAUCCAAUGUGCCAGUCGGCUCUUUGCACUCGCCUUGUCCUAUAUAUCCGUACGGAGGUGUGCAAUCCUGUGUCAGUCGCCUUGUGACACUGAAGUGGAUGAGUUAUAGAGGAGUGGAAUUCUCGGGUGCCAA,0.485
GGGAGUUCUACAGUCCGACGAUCGCCAGUUUUUUGUUUGCUUGUUUUUGAAACUGGGUUUAGGGGAUACAGUUGUCAGAAGUGACUCAUUCGCUUCAUUUGUGAUGAUUUUUUUUUAAUCUUCCUCUGUUAGCUGGAAUUCUCGGGUGCCAA,35.3
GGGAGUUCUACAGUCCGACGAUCACAUUUUCAAGGGAUAAGGCCUUCUGUACUUUGCUUAUUUGAAGAAUCAGUGGUAGGAGCAGUGAAGUAAAUUCUAUGGAGUACAUUUCUAAAAUACCACAUUUCUGAAAUGGAAUUCUCGGGUGCCAA,0.352
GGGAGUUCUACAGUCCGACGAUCCUCGAGACAUUUUUUCUGUACUCAUAUUUAGAUUCACAAUGGUUGUGUAUCUCUAUAAUGUGAAAUAUUUUUUUGUGGUGAAUAAAAGGGGGCCAAGGAGGUAUGAGCCAUGGAAUUCUCGGGUGCCAA,0.894
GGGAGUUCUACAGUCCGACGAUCCAUUUCUGAUGUUGUCUGCCCAUCAGGCAAACAUUCCCUUUUAAAUGCUUAUAUACACAUUCCUUAGGUUGGAAGAAUAUCCACGGACAAUGCACUUAUUUUUAAACGAGUGGAAUUCUCGGGUGCCAA,0.329
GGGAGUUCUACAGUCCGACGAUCGCCGGCCCUGUCAUGCGCAGGUUUUCCACUCAUCUGAGGAAGAGCCAGGGCUCUGAAUUUAGCCUAACACUCAUCUUGGCUGUGGGCUUGGGAAGAAAUGGCCAUUAUUUUGGAAUUCUCGGGUGCCAA,0.368
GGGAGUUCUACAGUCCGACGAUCCUCCUCCCAGACCCAGCUGGUGGCUGUGAGGAGGUGGGGAAUGCUAAUGAGAAUGAAAAGCACAUGGGUUGAUGGGAAGGGACAAGAUUACCACGUUAGGAGGGUGAGCAUGGAAUUCUCGGGUGCCAA,29.5
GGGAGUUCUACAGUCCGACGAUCCGUCCGUCCAUCUGUCCCUGCUGGUCUCUGUCUAGAGAGUGCUGUUCGGGAUCUGCUCCUUCUGUCCCAGGAGGUCUACUGGAGUUAGUUGUGUGGUCACCAAGAGGACUUGGAAUUCUCGGGUGCCAA,0.304

# Excerpt of the above (block 1):
Oligonucleotide,E-score
CATTCGCC,-0.215
AAGCGGAA,0.0743
CTCATCGC,-0.0681
TAAGGTAA,0.185
CAAAGCAG,0.00642
AATACATT,0.299
GTCCGTCA,0.0496
ATTGGCTA,-0.00043
GTGTTGCA,-0.00976
GGCACCCA,-0.224
